Measured values pooled from the literature.
Each numbered part is a random draw from the data of one study; scales do not carry over between parts. Changes are numbered by the printed parent chain.
UniProt P60604, sequence (whole entry, looked up): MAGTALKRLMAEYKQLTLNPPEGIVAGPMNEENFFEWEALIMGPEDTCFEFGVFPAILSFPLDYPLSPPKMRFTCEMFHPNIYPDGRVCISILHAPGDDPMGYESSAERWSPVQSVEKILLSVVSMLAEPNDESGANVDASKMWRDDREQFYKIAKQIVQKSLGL
UniProt Q5VVX9, sequence (whole entry, looked up): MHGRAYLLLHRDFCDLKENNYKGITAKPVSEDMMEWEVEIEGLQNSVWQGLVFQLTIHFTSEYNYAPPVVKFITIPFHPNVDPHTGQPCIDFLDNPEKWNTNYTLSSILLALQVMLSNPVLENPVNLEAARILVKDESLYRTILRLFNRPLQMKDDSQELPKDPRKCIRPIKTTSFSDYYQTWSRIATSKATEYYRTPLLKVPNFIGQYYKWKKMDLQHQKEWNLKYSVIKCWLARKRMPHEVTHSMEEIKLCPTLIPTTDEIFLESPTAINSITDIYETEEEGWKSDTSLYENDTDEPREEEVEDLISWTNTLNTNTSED
UniProt Q13404, sequence (whole entry, looked up): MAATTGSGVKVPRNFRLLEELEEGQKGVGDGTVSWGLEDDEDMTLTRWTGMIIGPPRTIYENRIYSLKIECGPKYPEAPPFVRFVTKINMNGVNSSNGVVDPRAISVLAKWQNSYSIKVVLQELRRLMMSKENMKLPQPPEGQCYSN
UniProt Q96LR5, sequence (whole entry, looked up): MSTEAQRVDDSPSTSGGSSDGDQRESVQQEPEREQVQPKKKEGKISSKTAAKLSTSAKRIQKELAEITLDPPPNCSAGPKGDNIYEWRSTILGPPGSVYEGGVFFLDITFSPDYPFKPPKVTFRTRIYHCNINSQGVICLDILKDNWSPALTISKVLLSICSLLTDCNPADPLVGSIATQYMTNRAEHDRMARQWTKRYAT
UniProt P51965, sequence (whole entry, looked up): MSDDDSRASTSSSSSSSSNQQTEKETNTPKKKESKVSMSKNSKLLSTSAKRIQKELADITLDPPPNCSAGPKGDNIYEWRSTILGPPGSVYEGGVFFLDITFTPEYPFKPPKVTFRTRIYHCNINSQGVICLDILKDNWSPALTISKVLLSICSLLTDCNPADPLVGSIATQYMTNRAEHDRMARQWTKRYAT

Study 1
Target: ABI1, truncated, D143A, DHFR fusion (Arabidopsis thaliana)
Technique: DHFR PCA, deep sequencing
Medium: yeast
Notes: methotrexate growth selection, single substitutions
Together with: (+)-ABA 2500 µM
Relative to: wild-type fitted maximum
Reading: higher = stronger binding
Starting sequence: PYL1, truncated, DHFR fusion (Arabidopsis thaliana); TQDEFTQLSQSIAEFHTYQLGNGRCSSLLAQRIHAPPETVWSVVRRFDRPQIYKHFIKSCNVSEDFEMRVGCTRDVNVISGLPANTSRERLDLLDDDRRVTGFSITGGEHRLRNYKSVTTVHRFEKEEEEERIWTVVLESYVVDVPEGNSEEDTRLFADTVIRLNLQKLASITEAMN
For `N77S`, “relative binding score” read 95.8%.
`L94Y` — result for “relative binding score”: 104%.
Under “relative binding score”, `F5K` is recorded as 109%.
For `N22G`, “relative binding score” read 104%.
For `S117R`, “relative binding score” read 8.71%.
`R24E` — result for “relative binding score”: 102%.
For `V143K`, “relative binding score” read -5.36%.
`N77P`: “relative binding score” 51.4%.
`D92E`: “relative binding score” 101%.
`V118S` — result for “relative binding score”: 86.5%.
For `R90I`, “relative binding score” read 86.3%.
`T101V`: “relative binding score” 97.5%.
Under “relative binding score”, `R90M` is recorded as 89.3%.
`G108L`: “relative binding score” 60.5%.
`D75I` — result for “relative binding score”: 101%.
For `S59M`, “relative binding score” read 99%.
Under “relative binding score”, `N22Q` is recorded as 105%.
`E131S` — result for “relative binding score”: 105%.
`I172Q` — result for “relative binding score”: 92.7%.
`D97L`: “relative binding score” 98.4%.

Study 2
Molecule: B1 (RNF25 RING domain)
Technique: yeast two-hybrid
Medium: yeast
Notes: mostly zero background
Relative to: not given
Reading: higher = stronger interaction
B1: RNF25 RING domain (UniProt Q96BH1); chain LTDNNIPHGQCVICLYGFQEKEAFTKTPCYHYFHCHCLARYIQHMEQELKAQGQEQEQERQHATTKQKAVGVQCPVCREPLVYDLASL
UBE2E1 UBC core domain (UniProt P51965) — “lacZ reporter activity”: 7310.
For UBE2U UBC core domain (UniProt Q5VVX9): “lacZ reporter activity” read 7590.
UBE2V1 UBC core domain (UniProt Q13404) — “lacZ reporter activity”: 0.
It gave 0 for “lacZ reporter activity” (UBE2G2 UBC core domain (UniProt P60604)).
The “lacZ reporter activity” was 0 (UBE2E2 UBC core domain (UniProt Q96LR5)).

Study 3
Target: RNA binding protein fox-1 homolog 2, RRM domain, GST-SBP tag (RBFOX2, Homo sapiens, UniProt O43251-10, residues 100-194)
Technique: RNA Bind-n-Seq
Form: RNA
Medium: in vitro
Tested at: 365 nM
Notes: natural RNA segment, single round, ends assumed
Relative to: no-protein control
Reading: higher = stronger binding
Target sequence (chain): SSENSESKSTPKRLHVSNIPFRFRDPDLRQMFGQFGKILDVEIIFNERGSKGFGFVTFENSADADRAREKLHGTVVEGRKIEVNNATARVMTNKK
`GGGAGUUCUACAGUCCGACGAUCUUAUUUAAUAAUUAGCACACCCUGAUCUGGCUUCUUUGCUUGCUUUUCUUUGGAUCCCUGUCCAAUAACCUCUGUGGAAUCUCAUUCCCUAAUUGUUGAUACUCAUUUUCUGGAAUUCUCGGGUGCCAA`: “RBNS enrichment (R)” 1.68.
`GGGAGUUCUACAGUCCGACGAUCAGCCGGGACUGUCACUUUGGAGACAAAACAGUGUUUGUAACAAUAACGUACUCACCGCCGCGGACAAUCCCCCACCCCGAUCCCUCGCCAGACCAGGACGCUUCCUCAAGUGGAAUUCUCGGGUGCCAA`: “RBNS enrichment (R)” 0.388.
`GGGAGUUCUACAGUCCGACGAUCGGGAAUAAUUUUUGUUCAGUCCUUCUUAGUGACCAAACUUUAAUUUUUAAGAAUAAUAUAUUGACUUACUGAACUGAAGCAUUCUGAGUUGAAAGGAGCUCCAGAGGAGUUGGAAUUCUCGGGUGCCAA` — result for “RBNS enrichment (R)”: 0.498.
Under “RBNS enrichment (R)”, `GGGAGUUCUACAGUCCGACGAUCUUUGAAGUUUUUCAGUGAAGGAAAAGGCCUGAGAUAGGAAGCAGUGCCCUCGCUUCAUGAGGUGGCACAUCUUCGGUGGCCGUUGGCCUGGUCGAGCUUUGGUCAGCUGCUGGAAUUCUCGGGUGCCAA` is recorded as 0.36.
Under “RBNS enrichment (R)”, `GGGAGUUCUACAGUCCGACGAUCUUGGUGAUUCUCCUCAAGUACUAGCUGCCUAAGCUACAGAGGGCACUGGCCUGCUCCUACAGAAGGAAGCAAUCAUAGCUUCUAUUGUUUUAAACAAAACAACAGGAAGAUGGAAUUCUCGGGUGCCAA` is recorded as 0.219.
`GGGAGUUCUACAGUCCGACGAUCUGGAGCAUUAACUUGAAAUUGUCUUCAAGGACUUGCUAUGUGCACUUCUUCACACCGGUACAUUCUCUGCAUCUGUUUAUAUGAAAUAACACAAGCUAAUCUGUACCUUUUGGAAUUCUCGGGUGCCAA` — result for “RBNS enrichment (R)”: 0.253.
Under “RBNS enrichment (R)”, `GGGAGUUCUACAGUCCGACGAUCAUCACCGGUGGAGUCCCAGGGUGACAGUCCCAGCCUGCAUUUUUGGUGGAAAAUUAGAUGGAGUGAGAAGCCCCCUGCGGACUCCCAGCUGGAUGGAAAAGACAGGAGGAUGGAAUUCUCGGGUGCCAA` is recorded as 0.803.
Under “RBNS enrichment (R)”, `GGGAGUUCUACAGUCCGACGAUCUAAAGAGACUGGCCAACAGGACCAACCAAGCACCUUACCUCUCCCAUACAAGAUGACCCUCUGAGCUUUUCAUUUAUUCAAGCUCUGUGGUACAGCCUUUUUUUAAAAUAUGGAAUUCUCGGGUGCCAA` is recorded as 0.411.

Study 4
Target: CCNA1, cyclin fold, Cln2 fusion (human)
Technique: yeast growth competition, sequencing
Medium: yeast
Notes: weak parent motif
Relative to: not given
Reading: higher = stronger binding
Starting sequence: RBL1 docking peptide (human); GSAKRRLFGEDPP; partner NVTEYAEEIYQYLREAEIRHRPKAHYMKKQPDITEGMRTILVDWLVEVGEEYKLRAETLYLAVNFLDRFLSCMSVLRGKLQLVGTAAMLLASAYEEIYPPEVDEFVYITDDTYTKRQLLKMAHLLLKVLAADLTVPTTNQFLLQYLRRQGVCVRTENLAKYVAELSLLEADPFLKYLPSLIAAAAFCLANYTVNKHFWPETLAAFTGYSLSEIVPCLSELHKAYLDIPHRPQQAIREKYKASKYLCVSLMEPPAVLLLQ
For `GSAKRRLFGETPP [D11T]`, “normalised enrichment score” read 0.632.
`GSAKRRLFGEGPP [D11G]`: “normalised enrichment score” 0.573.
Under “normalised enrichment score”, `GSAKRRLFGEDPF [P13F]` is recorded as 0.272.
`GSPKRRLFGEDPP [A3P]` — result for “normalised enrichment score”: 0.25.
Under “normalised enrichment score”, `GSAKRRLFGEDPL [P13L]` is recorded as 1.06.
For `GYAKRRLFGEDPP [S2Y]`, “normalised enrichment score” read 0.639.
`GSAKRRLFGEQPP [D11Q]`: “normalised enrichment score” 0.459.
`GSAPRRLFGEDPP [K4P]`: “normalised enrichment score” 0.249.
`GSAKRRLFGEDPA [P13A]` — result for “normalised enrichment score”: 0.598.
Under “normalised enrichment score”, `GSAKRRLFGEDAP [P12A]` is recorded as 0.519.
For `GSAKRRLFYEDPP [G9Y]`, “normalised enrichment score” read 0.4.
`GSAKRRLLGEDPP [F8L]`: “normalised enrichment score” 0.356.
`GSAKRRLFMEDPP [G9M]` — result for “normalised enrichment score”: 0.429.
For `LSAKRRLFGEDPP [G1L]`, “normalised enrichment score” read 0.68.
For `GSAKTRLFGEDPP [R5T]`, “normalised enrichment score” read 0.165.
`GSAIRRLFGEDPP [K4I]` — result for “normalised enrichment score”: 0.227.
`GSAWRRLFGEDPP [K4W]` — result for “normalised enrichment score”: 0.185.

For quick reference, copied from above (study 1):
For `R90I`, “relative binding score” read 86.3%.
`T101V`: “relative binding score” 97.5%.
Under “relative binding score”, `R90M` is recorded as 89.3%.
`G108L`: “relative binding score” 60.5%.
`D75I` — result for “relative binding score”: 101%.
For `S59M`, “relative binding score” read 99%.
Under “relative binding score”, `N22Q` is recorded as 105%.
`E131S` — result for “relative binding score”: 105%.
